# Measured values collected from several papers.
# Compare with care: the assays were run in different laboratories. “And” joins repeats or separate records; there may be more than shown. ± gives the spread as reported.
SMILES,cell line,assay,setting,how to read,measurement,value
CNc1ncnc2c1ncn2C1OC(CO)C(O)C1O (stereo not drawn),mock-transfected cells,"TGFα shedding, agonist",10 µM,relative to: unstimulated vehicle control,AP-TGFα release,2.26% and 2.75% and 2.41%
O=C(C[Se]C(=O)c1ccc2ccccc2c1)Nc1cccc(C(F)(F)F)c1,"NCI60 prostate subpanel (PC-3, DU-145)","cell growth, inhibitor",five-dose,,GI50,1.82 µM
CCC(=CCc1c(O)cc2c(c1O)C(=O)CC(c1ccc(O)cc1)O2)CC (stereo not drawn),HeLa,"cell growth or viability, MTT","3.125 µM, 48 h",,inhibition,11.1%
CSC(=S)N/N=C(\C)c1ccc(Nc2nnc(-c3ccc(Cl)cc3)c3ccccc23)cc1,HepG2,"cell growth or viability, MTT","10 µM, 24 h",,viability,7.84%
Cc1cc(Cl)cc(-c2ccnc3cc(CN4C(=O)C5C(C4=O)C5(C)C)sc23)c1C[C@@H]1CNCCO1 (stereo partly drawn),CHP-212 resistant subline R3,annexin V/PI flow cytometry,"0.3 µM, 48 h",,late apoptotic cells,11.5% and 5.79% and 6.49%
CC1(C)CC[C@@]2(CO)C(=C3C=C[C@@H]4[C@@]5(C)CC[C@H](O)[C@@](C)(CO)[C@@H]5CC[C@@]4(C)[C@]3(C)C[C@@H]2O)C1,"HepG2, negative control siRNA","Western blot, item: Deptor","concentration not given, high dose, unit not given, with: ethanol",relative to: β-actin,protein level,1.1 and 1.61 and 1.47
Cc1c(Cl)cccc1Nc1ccccc1C(=O)[Se]CC(=O)Nc1cccc(C(F)(F)F)c1,"NCI60 prostate subpanel (PC-3, DU-145)","total growth inhibition, inhibitor",five-dose,,mean TGI,3.26 µM
O=C(N1CCCC1)n1cc(-c2ccc(-c3ccccc3)cc2)nn1,mouse T cells,"N-terminal labelling proteomics, item: NIBAN N-terminal peptides","0.001 µM, 6 h",relative to: DMSO,SILAC ratio,1.3
Cc1cccc(-c2cccc(C)n2)n1.Cc1cccc(-c2cccc(C)n2)n1.F[P-](F)(F)(F)(F)F.F[P-](F)(F)(F)(F)F.[Ru+2].c1ccc2c(-c3nc4c5cccnc5c5ncccc5c4[nH]3)c3ccccc3cc2c1,SK-MEL-28,cell viability,"dark, 1% O2",,EC50,104 ± 9 µM
CN1CCN(C(=O)c2ccc(-c3cc4c(N5CCC[C@H](C(=O)NCc6ccc(OC(F)(F)F)cc6)C5)ncnc4[nH]3)cc2)CC1,NCI-H3122,"cell growth or viability, MTT","0.2 µg/mL, 72 h",,inhibition,51.3%
CSCC[C@H](NC(=O)[C@H](CCC(N)=O)NC(=O)[C@H](CCCCN)NC(=O)[C@H](CCCNC(=N)N)NC(=O)[C@H](Cc1ccc(O)cc1)NC(=O)[C@H](CCCNC(=N)N)NC(=O)[C@H](CO)NC(=O)[C@H](Cc1ccc(O)cc1)NC(=O)[C@H](CO)NC(=O)[C@H](CC(=O)O)NC(=O)[C@@H](NC(=O)[C@@H](N)Cc1ccccc1)[C@@H](C)O)C(=O)N[C@@H](C)C(=O)N[C@H](C(=O)N[C@@H](CCCCN)C(=O)N[C@@H](CCCCn1cc(C[C@H](NC(=O)CNC(=O)[C@H](CO)NC(=O)[C@H](CCCNC(=N)N)NC(=O)[C@H](CO)NC(=O)[C@H](CC(C)C)NC(=O)[C@H](CC(C)C)NC(=O)CNC(=O)[C@H](C)NC(=O)[C@H](CC(C)C)NC(=O)[C@H](CCCNC(=N)N)NC(=O)[C@H](Cc2c[nH]cn2)NC(=O)[C@@H](NC(=O)[C@@H](N)C(C)C)[C@@H](C)O)C(=O)N[C@H](C(=O)N[C@H](C(=O)N[C@@H](CCCCN)C(=O)N[C@@H](CC(N)=O)C(=O)N[C@@H](CC(N)=O)C(=O)N[C@@H](Cc2ccccc2)C(=O)N[C@H](C(=O)N2CCC[C@H]2C(=O)N[C@H](C(=O)N[C@@H](CC(N)=O)C(=O)N[C@H](C(=O)NCC(=O)N[C@@H](CO)C(=O)N[C@@H](CCCCN)C(=O)N[C@@H](C)C(=O)N[C@@H](Cc2ccccc2)C(N)=O)C(C)C)[C@@H](C)O)C(C)C)C(C)C)C(C)C)nn1)C(=O)N[C@@H](Cc1ccc(O)cc1)C(=O)N[C@@H](CC(C)C)C(=O)N[C@@H](C)C(=O)N[C@@H](C)C(=O)N[C@H](C(=O)N[C@@H](CC(C)C)C(=O)NCC(=O)N[C@@H](CCCCN)C(=O)N[C@@H](CCCNC(=N)N)C(=O)N[C@@H](Cc1ccc(O)cc1)C(=O)N[C@@H](CCCCN)C(=O)N[C@@H](CCC(N)=O)C(=O)N[C@@H](CCCNC(=N)N)C(=O)N[C@H](C(=O)N[C@@H](CCCCN)C(=O)N[C@@H](CC(N)=O)C(=O)N[C@@H](CCCCN)C(N)=O)C(C)C)C(C)C)C(C)C,transfected COS-7 cells,"cAMP accumulation, antagonist",with: PACAP-38,,A2,> 10 µM
C=CC(=O)N1[C@H](c2ccc3c(c2)OCO3)c2[nH]c3ccccc3c2C[C@@H]1C(=O)NC1CC1,rat DRG neurons,,"0.004572 µM, 48 h, with: vincristine 40 nM",,mean neuron degeneration,83.2%
CCN(C(=O)c1cc(F)ccc1Oc1nncnc1N1CCC2(C1)CN([C@H](CCCN(C)CCOC)C(C)C)C2)C(C)C,SK-HEP1,cell growth or viability,72 h,,GI50,> 10 µM
O=C1C(Cl)=C(Cl)C(=O)c2c(O)ccc(O)c21,HuCC-A1,MTT,,relative to: IC50 MRC-5 over IC50 HuCC-A1,selectivity index,1.1
CNS(=O)(=O)Nc1nccc(Cc2c(C)c3ccc(Oc4ncccc4F)cc3oc2=O)c1F,HCC1954,cell viability,7 days,,IC50,0.757 µM
COc1cc(N2CCN(C(=O)CN)CC2)ccc1Nc1ncc(Cl)c(Nc2ccccc2P(C)(C)=O)n1,NCI-H3122,CCK-8,"500 nM, 48 h",,viability,21%
CN1CCCNC(=O)c2cccc(c2)C(=O)NCCCN(C)CCCNc2cccc3c2C(=O)c2cccc(c2C3=O)NCCC1,SAS,"RNA-Seq, item: NUDT12 mRNA","1 µM, 6 h",relative to: untreated cells,log2 fold change,1.95
CCCCCCc1cccc(C(O)CC(CO)NC(=O)CCCCCCCCCCNC(C)=O)c1 (stereo not drawn),HeLa,"CERT activity, HPLC-MS/MS lipidomics, item: sphingomyelin 20","1 µM, 24 h, not cell-number normalised",,sphingomyelin level,3280 pmol/sample and 2660 pmol/sample and 2320 pmol/sample
Cc1cccc(-c2cccc(C)n2)n1.Cc1cccc(-c2cccc(C)n2)n1.F[P-](F)(F)(F)(F)F.F[P-](F)(F)(F)(F)F.[Ru+2].c1ccc2c(c1)Cc1cc(-c3nc4c5cccnc5c5ncccc5c4[nH]3)ccc1-2,SK-MEL-28,cell viability,"1% O2, with: blue light 453 nm, 100 J/cm2",,EC50,21.5 ± 0.6 µM
COC(=O)c1cc(NC2=NC(=O)C(=Cc3ccc(N(C)C)cc3)S2)ccc1OC(C)=O,MCF7,"GC-MS, item: 3-Aminoisobutyric acid",1 µM,relative to: DMSO,metabolite level,0.54 fold change
C#CCOC(=O)[C@@]1(C)C=C(C(=O)Nc2cccc(C(=O)Nc3ccc(C)c(Nc4nccc(-c5cccnc5)n4)c3)c2)C(=O)CC1,SH-SY5Y MKK7 active,"western blot, item: phospho-c-Jun Ser73","10 µM, unit not given",relative to: doxycycline without inhibitor,phospho-c-Jun level,0.111
CCN(CC)CC(=O)Nc1cccc(-n2cc(-c3ccc4ccc(-c5cn(-c6cccc(NC(=O)CN(CC)CC)c6)nn5)cc4c3)nn2)c1,RCC4,"PCR angiogenesis array, item: MMP9","5 x IC50, 6 h, normoxia",relative to: untreated,fold regulation,-1.33
O=C(C[Se]C(=O)c1cc2ccccc2[nH]1)Nc1cccc(C(F)(F)F)c1,NCI60 breast subpanel mean,cell growth,,,TGI,3.98 µM
CC(C)c1ccc(N(C)c2ccc3c(c2)OCC[C@H]3CNc2cnccc2C(=O)O)cc1,SNG-M,"cell viability, CellTiter-Glo",7 days,,IC50,4.9 µM
O=C(C[Se]C(=O)c1cc2ccccc2o1)Nc1cccc(C(F)(F)F)c1,"NCI60 prostate subpanel (PC-3, DU-145)",cell growth,"10 µM, 48 h, one-dose",,mean growth percent,-79.9%
C[C@@H]1Cc2c([nH]c3ccccc23)[C@@H](c2c(F)cc(/C=C/C(=O)O)cc2F)N1C12CC(C1)C2,MCF7,"RNA-seq, item: SGK3 mRNA","1 µM, 24 h, E2-induced gene",relative to: DMSO vehicle,log2 fold change,-1.86
Cc1cccc(-c2cccc(C)n2)n1.Cc1cccc(-c2cccc(C)n2)n1.F[P-](F)(F)(F)(F)F.F[P-](F)(F)(F)(F)F.[Ru+2].c1cc2ccc3ccc(-c4nc5c6cccnc6c6ncccc6c5[nH]4)c4ccc(c1)c2c34,SK-MEL-28,cell viability,"normoxia, with: blue light 453 nm, 100 J/cm2",,EC50,2.9 ± 0.06 µM
N#Cc1cccc(/C=C/C(=O)c2ccc(O)cc2)c1,U-87 MG,item: ARHGAP22,concentration not given,relative to: untreated,fold change,0.027
Cn1ncc2cc(-c3cncc(Cl)c3N3CCC4(CCNC4=O)CC3)ccc21,LS174T,"gene expression, microarray, item: TRIM31 mRNA","concentration not given, 24 h",relative to: untreated cells,log2 fold change,2.46
Cc1ncsc1-c1ccc(C(C)NC(=O)C2CC(O)CN2C(=O)C(NC(=O)CCCCCCCCCCN2CCCC(Nc3ncc(Cl)c(Nc4ccccc4S(=O)(=O)C(C)C)n3)C2)C(C)(C)C)cc1 (stereo not drawn),22Rv1,"RNA-seq, item: PHLDB3 mRNA",concentration not given,relative to: DMSO,log2 fold change,-1.99
